Published values pooled from the literature.
Each numbered part is a random draw from the data of one study; scales do not carry over between parts. Several values in a cell are separate wells, animals, samples, runs or records.
Chain of UniProt Q8IW41 (whole entry, looked up): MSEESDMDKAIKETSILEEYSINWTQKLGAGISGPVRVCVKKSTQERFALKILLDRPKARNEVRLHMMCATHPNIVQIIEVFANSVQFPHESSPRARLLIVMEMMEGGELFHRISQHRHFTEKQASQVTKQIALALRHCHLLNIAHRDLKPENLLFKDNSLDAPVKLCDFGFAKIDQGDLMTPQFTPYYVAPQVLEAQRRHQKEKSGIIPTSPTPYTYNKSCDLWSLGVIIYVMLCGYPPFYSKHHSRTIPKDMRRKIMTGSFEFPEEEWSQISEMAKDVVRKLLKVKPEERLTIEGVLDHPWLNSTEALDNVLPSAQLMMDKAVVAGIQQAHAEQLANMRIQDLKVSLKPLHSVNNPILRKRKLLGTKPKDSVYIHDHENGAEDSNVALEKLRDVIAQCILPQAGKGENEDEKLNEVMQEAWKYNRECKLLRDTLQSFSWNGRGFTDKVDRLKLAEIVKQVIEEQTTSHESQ
Chain of UniProt Q15569 (whole entry, looked up): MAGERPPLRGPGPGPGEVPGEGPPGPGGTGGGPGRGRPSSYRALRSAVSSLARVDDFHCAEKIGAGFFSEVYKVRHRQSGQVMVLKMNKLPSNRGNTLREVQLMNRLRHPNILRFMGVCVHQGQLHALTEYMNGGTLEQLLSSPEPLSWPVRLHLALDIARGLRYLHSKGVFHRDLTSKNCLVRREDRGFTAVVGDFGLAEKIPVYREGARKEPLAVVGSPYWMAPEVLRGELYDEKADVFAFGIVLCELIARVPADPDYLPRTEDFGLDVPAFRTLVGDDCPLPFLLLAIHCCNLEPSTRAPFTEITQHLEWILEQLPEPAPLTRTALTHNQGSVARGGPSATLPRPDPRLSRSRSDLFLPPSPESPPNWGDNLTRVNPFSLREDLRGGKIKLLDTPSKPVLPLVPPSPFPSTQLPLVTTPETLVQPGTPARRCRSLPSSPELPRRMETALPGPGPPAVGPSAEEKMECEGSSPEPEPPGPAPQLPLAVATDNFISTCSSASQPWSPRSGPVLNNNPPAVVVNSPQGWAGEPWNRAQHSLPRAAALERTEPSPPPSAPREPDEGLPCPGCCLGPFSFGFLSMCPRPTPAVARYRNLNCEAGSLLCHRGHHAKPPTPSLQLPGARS
Chain of UniProt P35968 (whole entry, looked up): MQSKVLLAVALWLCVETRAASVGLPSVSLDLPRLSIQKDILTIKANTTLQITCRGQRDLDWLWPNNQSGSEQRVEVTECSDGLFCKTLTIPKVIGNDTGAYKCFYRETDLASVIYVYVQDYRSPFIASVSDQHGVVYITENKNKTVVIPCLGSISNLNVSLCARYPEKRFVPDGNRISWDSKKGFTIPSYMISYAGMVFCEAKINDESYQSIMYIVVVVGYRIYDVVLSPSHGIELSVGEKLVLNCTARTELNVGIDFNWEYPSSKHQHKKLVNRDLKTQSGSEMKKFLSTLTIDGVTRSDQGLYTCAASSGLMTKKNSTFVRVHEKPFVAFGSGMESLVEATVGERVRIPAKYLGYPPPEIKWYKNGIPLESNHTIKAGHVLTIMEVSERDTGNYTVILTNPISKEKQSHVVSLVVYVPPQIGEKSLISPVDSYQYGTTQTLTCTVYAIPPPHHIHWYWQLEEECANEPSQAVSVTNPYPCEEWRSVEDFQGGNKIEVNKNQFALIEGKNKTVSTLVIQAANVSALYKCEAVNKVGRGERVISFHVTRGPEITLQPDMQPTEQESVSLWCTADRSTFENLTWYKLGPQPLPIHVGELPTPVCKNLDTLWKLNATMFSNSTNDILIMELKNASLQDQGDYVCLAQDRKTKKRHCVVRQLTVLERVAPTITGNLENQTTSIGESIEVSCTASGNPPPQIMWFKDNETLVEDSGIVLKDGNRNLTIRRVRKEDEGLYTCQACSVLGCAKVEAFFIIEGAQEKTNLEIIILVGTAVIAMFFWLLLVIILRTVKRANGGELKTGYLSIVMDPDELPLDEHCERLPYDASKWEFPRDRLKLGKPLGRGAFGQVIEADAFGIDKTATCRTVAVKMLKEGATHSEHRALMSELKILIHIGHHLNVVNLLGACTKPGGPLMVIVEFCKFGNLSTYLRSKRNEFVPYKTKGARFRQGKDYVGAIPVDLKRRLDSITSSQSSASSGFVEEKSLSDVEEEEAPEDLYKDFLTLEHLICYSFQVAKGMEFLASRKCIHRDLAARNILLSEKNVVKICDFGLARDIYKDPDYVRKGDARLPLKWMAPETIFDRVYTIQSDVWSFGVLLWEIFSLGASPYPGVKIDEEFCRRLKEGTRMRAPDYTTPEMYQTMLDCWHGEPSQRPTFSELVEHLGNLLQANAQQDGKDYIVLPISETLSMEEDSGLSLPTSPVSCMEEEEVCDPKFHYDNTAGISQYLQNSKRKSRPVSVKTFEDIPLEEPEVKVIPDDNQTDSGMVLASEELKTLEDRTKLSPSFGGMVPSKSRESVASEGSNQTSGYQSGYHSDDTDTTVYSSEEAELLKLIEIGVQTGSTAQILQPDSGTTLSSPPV
Chain of UniProt P53667 (whole entry, looked up): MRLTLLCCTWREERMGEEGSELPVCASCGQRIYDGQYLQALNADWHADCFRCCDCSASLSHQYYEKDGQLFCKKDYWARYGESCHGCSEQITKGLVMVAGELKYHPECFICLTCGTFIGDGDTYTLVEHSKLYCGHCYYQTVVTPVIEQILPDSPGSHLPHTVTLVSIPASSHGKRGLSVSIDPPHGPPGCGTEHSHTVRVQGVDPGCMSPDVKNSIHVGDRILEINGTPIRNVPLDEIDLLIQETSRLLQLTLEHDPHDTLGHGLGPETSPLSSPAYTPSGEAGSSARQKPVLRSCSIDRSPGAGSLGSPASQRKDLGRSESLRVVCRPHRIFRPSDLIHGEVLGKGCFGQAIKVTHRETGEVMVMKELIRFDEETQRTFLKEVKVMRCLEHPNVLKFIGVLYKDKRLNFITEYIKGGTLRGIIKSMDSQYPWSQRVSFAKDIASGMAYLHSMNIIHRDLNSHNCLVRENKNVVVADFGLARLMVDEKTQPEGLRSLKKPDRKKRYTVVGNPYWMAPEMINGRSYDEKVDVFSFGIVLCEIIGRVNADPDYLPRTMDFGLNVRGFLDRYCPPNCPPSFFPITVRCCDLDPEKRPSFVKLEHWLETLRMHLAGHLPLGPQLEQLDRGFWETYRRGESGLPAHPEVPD
Chain of UniProt P06241 (whole entry, looked up): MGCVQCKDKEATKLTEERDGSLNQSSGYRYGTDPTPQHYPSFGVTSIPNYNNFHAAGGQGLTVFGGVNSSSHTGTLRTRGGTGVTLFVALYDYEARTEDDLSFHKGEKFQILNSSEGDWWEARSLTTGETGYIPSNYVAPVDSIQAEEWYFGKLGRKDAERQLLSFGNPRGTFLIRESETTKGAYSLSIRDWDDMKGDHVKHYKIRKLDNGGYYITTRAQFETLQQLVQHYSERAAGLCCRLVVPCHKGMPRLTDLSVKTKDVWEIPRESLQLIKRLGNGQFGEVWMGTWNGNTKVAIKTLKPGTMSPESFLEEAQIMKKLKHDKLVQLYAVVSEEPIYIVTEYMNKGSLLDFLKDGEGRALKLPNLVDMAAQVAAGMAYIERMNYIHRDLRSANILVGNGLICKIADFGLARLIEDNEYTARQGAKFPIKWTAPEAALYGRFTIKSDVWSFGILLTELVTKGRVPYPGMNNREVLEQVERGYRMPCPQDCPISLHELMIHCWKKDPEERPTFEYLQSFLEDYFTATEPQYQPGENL

Series 1 — effect on: enzyme activity; tested at: 10 µM; relative to: untreated control
Structure (SMILES): Cc1sc(C(=O)NC2COC2)cc1-n1cc(NC(=O)Nc2c(F)cccc2Cl)cn1
target	remaining activity [%]
EGFR (Homo sapiens, UniProt P00533)	95.2
TESK1 (Homo sapiens, UniProt Q15569)	88.7
KDR (Homo sapiens, UniProt P35968)	87.5
MAP4K3 (Homo sapiens, UniProt Q8IVH8)	117
FYN (Homo sapiens, UniProt P06241)	97.1
RIPK2 (Homo sapiens, UniProt O43353)	87.5
MAPKAPK5 (Homo sapiens, UniProt Q8IW41)	95.3
LIM domain kinase 1 (LIMK1, Homo sapiens, UniProt P53667)	104

Series 2 — cell line: mouse MPNST tumor cells; technique: high-content immunofluorescence imaging; measured: nuclear SOX9; tested at: 10 µM; time: 12 h; setting: mean of 2 replicates; relative to: DMSO control; reading: higher = more nuclear SOX9
Compound	nuclear SOX9 intensity
CC(CNS(=O)(=O)C(C)C)c1ccc(-c2ccc(C#N)cc2)cc1 (stereo not shown)	78.7 % of DMSO
CN(Cc1cnc2nc(N)nc(N)c2n1)c1ccc(C(=O)N[C@@H](CCC(=O)O)C(=O)O)cc1 (racemic)	115 % of DMSO
NS(=O)(=O)c1c(Cl)ccc(NC(=O)Nc2cccc(Cl)c2Cl)c1O	91.2 % of DMSO
COc1ccc(C2(O)CCC(N3CC[C@@H](NC(=O)CNC(=O)c4cccc(C(F)(F)F)c4)C3)CC2)cn1 (stereo partly shown)	106 % of DMSO
C[C@H](O)C(=O)Nc1c(I)c(C(=O)NC(CO)CO)c(I)c(C(=O)NC(CO)CO)c1I	97.2 % of DMSO
FC(F)(F)c1ccc(/C=C/c2nc(COc3ccc(CCCCn4ccnn4)cc3)co2)cc1	103 % of DMSO
CCCC1O[C@@H]2C[C@H]3[C@@H]4CCC5=CC(=O)C=C[C@]5(C)[C@H]4[C@@H](O)C[C@]3(C)[C@]2(C(=O)CO)O1 (stereo partly shown)	102 % of DMSO and 67.6 % of DMSO
C[C@H](N)COC(=O)[C@H](CCCCN)NC(=O)Cc1c(-c2ccc3ccccc3c2)[nH]c2c1ccc1ccccc12	97.4 % of DMSO
CCn1c(=O)n(C2CCCN(c3nccc(-c4cc5ccccc5o4)n3)C2)c2ccccc21 (stereo not shown)	134 % of DMSO
CCCOc1ccccc1-c1nc2[nH]nnc2c(=O)[nH]1	96.5 % of DMSO and 110 % of DMSO
NC(=O)N[C@@H](CCC(=O)O)C(=O)O	87.9 % of DMSO

Series 3 — target: panel of 300 human kinases; tested at: 0.5 µM; reading: higher = more selective
SMILES	Gini score
CC(C)[C@H](CO)Nc1nc(Nc2cccc(Cl)c2)c2ncn(C(C)C)c2n1	0.69
CCN1/C(=C/C(C)=O)Sc2ccc(OC)cc21	0.69
N#Cc1cnc2cnc(NCc3cccnc3)cc2c1Nc1ccc(F)c(Cl)c1	0.61
O=c1cc(N2CCOCC2)oc2c(-c3ccccc3)cccc12	0.68
CN(C)CCCn1cc(C2=C(c3c[nH]c4ccccc34)C(=O)NC2=O)c2ccccc21	0.6
COc1cc2ncc(-c3ccccc3)nc2cc1OC	0.53
COc1ccc(-c2cnc3c(-c4ccsc4)cnn3c2)cc1	0.56
Cc1ccc(S(=O)(=O)/C=C/C#N)cc1	0.69
O=C1NC(=O)c2c1c1c3ccccc3[nH]c1c1[nH]c3cc(Br)ccc3c21	0.57
COc1cccc(-c2cc(=O)c3ccccc3o2)c1N	0.59
CCCNC(=O)Nc1ccc(Oc2ncnc3cc(OC)c(OC)cc23)cc1Cl	0.63
CN(C)S(=O)(=O)c1ccc2c(c1)/C(=C/c1cc3c([nH]1)CCCC3)C(=O)N2	0.65

Series 4 — effect on: binding; tested at: 0.1 µM
Target: Tyrosine-protein kinase ABL1, phosphorylated (ABL1, Homo sapiens, UniProt P00519, F317I)
Chain of UniProt P00519 (whole entry, unmodified, looked up): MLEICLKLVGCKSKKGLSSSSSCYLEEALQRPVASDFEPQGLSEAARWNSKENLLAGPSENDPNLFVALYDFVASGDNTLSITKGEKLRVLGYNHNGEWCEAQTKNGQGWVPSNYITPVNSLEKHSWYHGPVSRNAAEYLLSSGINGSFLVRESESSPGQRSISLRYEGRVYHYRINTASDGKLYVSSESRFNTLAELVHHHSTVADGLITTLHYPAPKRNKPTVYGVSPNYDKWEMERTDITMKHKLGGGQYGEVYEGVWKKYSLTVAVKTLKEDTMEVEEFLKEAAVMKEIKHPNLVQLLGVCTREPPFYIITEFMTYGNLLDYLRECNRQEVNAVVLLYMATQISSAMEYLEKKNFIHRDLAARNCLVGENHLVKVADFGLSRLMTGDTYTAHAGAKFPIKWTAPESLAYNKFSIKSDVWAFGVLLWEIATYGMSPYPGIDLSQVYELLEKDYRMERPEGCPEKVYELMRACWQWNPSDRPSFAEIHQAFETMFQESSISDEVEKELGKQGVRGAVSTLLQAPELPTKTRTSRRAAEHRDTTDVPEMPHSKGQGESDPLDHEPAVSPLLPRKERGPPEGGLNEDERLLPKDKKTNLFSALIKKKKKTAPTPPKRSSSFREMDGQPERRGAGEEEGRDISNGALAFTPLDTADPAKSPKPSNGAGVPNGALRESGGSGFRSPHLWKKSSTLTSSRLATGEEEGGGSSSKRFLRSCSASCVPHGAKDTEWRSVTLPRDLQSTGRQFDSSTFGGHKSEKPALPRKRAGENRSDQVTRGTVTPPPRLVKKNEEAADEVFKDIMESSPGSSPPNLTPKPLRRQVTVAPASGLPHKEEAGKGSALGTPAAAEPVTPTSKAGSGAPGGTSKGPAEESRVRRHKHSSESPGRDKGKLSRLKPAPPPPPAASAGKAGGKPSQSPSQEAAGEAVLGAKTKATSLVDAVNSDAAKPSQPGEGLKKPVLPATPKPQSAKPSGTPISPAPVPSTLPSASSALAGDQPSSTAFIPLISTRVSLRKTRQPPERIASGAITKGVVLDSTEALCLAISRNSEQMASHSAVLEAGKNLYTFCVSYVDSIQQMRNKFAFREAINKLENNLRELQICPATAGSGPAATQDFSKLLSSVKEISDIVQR
SMILES	remaining binding
C[C@@H](NC(=O)Nc1cc2[nH]ncc2c(CO)n1)c1ccccc1	80.2%
Cc1ccc(-c2cnc([C@@]3(O)CC[C@H](C(=O)O)C(C)(C)C3)s2)cc1Nc1cccc(C(F)(F)F)n1	80.1%
Cc1cc(Nc2nccc(C)n2)cc(-c2cnc([C@@]3(O)CC[C@H](C(=O)O)C(C)(C)C3)s2)c1	100%

Excerpt of the above (series 2):
Compound	nuclear SOX9 intensity
CN(Cc1cnc2nc(N)nc(N)c2n1)c1ccc(C(=O)N[C@@H](CCC(=O)O)C(=O)O)cc1 (racemic)	115 % of DMSO
NS(=O)(=O)c1c(Cl)ccc(NC(=O)Nc2cccc(Cl)c2Cl)c1O	91.2 % of DMSO
COc1ccc(C2(O)CCC(N3CC[C@@H](NC(=O)CNC(=O)c4cccc(C(F)(F)F)c4)C3)CC2)cn1 (stereo partly shown)	106 % of DMSO
